Measurements of several laboratories.
Protocols differ between the studies behind these lines. ± gives the spread as reported.
CHRM1: Muscarinic acetylcholine receptor M1 (CHRM1, Homo sapiens, UniProt P11229)
Chain of UniProt P11229 (whole entry, looked up): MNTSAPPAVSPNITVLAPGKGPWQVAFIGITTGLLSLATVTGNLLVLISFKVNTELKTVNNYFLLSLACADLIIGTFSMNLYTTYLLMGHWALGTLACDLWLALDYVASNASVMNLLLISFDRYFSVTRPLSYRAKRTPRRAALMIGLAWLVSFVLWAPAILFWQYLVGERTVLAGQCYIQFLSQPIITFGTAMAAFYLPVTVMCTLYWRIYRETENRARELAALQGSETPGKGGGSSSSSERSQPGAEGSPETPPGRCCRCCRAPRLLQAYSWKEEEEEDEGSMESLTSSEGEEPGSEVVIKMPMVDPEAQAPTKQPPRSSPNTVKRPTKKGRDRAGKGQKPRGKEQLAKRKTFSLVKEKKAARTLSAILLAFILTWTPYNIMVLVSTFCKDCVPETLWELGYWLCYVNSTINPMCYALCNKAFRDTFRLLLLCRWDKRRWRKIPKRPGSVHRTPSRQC
Oprm1: Mu-type opioid receptor (Oprm1, Rattus norvegicus, UniProt P33535)
Chain of UniProt P33535 (whole entry, looked up): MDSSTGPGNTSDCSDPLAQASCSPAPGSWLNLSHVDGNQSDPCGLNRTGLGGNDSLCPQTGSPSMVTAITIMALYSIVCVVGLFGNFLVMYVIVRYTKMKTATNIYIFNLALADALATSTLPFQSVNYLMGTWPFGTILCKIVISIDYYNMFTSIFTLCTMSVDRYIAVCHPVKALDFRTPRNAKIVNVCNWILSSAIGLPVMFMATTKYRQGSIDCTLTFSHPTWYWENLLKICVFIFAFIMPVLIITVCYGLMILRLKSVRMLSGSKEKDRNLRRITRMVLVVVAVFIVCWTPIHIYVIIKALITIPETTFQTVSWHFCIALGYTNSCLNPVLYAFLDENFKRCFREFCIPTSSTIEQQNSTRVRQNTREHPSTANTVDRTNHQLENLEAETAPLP
4'-phosphopantetheinyl transferase PptT: 4'-phosphopantetheinyl transferase PptT (Mycobacterium tuberculosis, UniProt O33336)
Chain of UniProt O33336 (whole entry, looked up): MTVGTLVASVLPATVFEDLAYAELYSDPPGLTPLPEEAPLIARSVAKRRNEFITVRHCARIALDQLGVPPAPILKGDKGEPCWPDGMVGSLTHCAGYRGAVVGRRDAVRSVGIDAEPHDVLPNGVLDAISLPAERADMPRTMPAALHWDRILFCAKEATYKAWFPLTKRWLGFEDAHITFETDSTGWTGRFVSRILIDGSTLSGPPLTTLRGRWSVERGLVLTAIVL
Chain of UniProt P31652 (whole entry, looked up): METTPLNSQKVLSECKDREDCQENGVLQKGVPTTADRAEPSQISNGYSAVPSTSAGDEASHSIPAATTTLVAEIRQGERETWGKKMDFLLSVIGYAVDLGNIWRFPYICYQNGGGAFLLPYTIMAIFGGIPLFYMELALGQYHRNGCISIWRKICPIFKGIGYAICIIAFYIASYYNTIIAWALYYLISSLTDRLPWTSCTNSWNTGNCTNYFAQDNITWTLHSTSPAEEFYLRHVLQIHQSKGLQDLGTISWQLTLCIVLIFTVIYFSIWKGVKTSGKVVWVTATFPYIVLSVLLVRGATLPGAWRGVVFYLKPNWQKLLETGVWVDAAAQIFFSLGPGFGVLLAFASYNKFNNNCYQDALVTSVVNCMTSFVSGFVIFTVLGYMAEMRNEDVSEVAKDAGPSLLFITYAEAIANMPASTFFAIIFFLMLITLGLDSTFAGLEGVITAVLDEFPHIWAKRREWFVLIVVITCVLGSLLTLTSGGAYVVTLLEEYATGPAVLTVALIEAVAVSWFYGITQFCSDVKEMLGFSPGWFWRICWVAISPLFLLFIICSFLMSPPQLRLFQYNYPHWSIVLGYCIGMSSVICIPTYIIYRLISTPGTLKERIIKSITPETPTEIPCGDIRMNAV
Chain of UniProt P9WK45 (whole entry, looked up): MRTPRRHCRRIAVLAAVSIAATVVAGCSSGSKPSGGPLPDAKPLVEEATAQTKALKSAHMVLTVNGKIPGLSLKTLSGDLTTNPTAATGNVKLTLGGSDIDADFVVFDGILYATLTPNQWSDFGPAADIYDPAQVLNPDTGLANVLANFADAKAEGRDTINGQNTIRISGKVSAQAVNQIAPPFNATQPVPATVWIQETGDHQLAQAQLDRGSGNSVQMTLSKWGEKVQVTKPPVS
Chain of UniProt Q92800 (whole entry, looked up): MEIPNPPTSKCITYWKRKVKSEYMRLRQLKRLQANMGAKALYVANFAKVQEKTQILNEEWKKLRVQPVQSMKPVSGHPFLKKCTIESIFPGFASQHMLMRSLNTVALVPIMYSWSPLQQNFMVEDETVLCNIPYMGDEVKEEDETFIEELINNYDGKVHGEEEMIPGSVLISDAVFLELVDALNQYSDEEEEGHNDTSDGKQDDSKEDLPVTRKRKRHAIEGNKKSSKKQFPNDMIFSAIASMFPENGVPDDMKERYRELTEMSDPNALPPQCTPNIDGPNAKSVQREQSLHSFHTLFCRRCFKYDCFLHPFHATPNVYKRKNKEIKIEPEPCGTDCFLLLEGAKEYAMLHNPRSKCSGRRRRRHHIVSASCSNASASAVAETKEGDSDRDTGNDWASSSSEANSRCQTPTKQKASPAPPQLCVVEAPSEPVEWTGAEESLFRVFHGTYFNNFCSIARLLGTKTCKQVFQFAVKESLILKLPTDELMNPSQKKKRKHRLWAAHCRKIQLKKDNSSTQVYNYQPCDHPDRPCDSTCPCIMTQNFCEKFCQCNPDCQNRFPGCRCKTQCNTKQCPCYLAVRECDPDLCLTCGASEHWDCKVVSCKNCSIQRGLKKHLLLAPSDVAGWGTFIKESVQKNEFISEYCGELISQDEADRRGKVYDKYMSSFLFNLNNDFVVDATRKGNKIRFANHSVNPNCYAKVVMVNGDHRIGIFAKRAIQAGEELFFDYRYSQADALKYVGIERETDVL
Chain of UniProt P11509 (whole entry, looked up): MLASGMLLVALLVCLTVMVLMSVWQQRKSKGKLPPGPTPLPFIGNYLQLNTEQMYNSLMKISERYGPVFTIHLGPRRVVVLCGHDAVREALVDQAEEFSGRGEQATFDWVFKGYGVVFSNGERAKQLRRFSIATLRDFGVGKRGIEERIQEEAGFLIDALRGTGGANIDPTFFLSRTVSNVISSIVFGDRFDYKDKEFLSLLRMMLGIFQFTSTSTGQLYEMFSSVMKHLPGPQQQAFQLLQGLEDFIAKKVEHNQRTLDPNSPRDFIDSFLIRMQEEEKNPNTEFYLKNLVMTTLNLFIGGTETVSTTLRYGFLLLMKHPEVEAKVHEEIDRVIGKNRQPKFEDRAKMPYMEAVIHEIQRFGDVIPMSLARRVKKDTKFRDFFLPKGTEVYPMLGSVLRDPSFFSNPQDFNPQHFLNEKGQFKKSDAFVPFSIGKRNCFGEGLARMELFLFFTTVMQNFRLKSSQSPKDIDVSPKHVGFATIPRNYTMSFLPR
Chain of UniProt Q9HAC7 (whole entry, looked up): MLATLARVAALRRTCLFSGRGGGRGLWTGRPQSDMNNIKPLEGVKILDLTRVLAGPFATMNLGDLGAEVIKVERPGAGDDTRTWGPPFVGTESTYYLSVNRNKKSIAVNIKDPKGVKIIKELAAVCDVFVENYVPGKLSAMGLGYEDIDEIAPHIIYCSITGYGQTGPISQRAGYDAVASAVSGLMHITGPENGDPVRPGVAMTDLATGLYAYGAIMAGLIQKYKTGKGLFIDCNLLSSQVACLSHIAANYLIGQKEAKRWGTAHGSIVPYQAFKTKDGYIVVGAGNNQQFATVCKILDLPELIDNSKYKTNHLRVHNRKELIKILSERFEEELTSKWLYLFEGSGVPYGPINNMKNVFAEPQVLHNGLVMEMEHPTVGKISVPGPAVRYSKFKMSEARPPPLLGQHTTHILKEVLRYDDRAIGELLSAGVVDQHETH
Chain of UniProt P9WQP3 (whole entry, looked up): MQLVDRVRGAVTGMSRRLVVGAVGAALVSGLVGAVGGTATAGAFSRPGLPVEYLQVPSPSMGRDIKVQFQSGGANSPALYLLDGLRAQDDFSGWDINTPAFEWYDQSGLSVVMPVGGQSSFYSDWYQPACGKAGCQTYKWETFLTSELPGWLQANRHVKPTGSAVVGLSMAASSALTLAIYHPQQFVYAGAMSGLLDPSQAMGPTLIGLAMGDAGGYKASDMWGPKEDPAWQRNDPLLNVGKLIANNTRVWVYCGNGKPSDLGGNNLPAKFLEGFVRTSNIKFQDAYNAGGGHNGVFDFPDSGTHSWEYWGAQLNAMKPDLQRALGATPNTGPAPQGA
Chain of UniProt Q8NET8 (whole entry, unmodified, looked up): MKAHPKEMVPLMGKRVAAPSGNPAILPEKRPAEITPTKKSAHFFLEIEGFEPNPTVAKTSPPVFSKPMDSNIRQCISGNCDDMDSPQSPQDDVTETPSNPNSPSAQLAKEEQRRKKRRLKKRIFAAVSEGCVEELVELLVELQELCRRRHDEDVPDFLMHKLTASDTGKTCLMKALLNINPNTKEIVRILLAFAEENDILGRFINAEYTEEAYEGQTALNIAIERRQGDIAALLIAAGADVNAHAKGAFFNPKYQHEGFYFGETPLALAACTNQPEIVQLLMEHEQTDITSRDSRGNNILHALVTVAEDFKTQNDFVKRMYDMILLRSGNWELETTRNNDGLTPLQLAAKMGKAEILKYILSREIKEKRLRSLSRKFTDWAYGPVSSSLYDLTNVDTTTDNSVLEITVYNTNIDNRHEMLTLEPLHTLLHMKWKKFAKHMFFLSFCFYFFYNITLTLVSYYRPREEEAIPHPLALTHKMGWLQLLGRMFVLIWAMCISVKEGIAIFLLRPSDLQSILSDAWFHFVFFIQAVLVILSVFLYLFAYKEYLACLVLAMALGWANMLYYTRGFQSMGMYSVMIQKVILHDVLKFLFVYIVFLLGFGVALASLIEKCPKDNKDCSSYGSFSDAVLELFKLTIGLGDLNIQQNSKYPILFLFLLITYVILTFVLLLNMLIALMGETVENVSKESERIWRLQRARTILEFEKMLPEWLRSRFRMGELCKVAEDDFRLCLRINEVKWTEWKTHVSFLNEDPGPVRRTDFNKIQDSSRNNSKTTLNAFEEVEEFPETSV

SMILES | target or system | test | system | conditions | quantity | value
CCCCCCCCCCCC(CC1OC(=O)C1C(C)C)OC(=O)C(CC(C)C)NC(=O)OCc1ccccc1 (centres unmarked) | fbpA (Mycobacterium tuberculosis, UniProt P9WQP3) | enzyme activity, inhibitor, 4-MUH hydrolysis fluorescence | – | pH 7.5, 4 mM trehalose, with: 50 µM 4-methylumbelliferyl heptanoate | EC50 | 34 ± 22 µM
Clc1cc(Cl)cc(N2CCNCC2)c1 | CHRM1 | ERK1/2 phosphorylation, agonist | CHO cells | – | EC50 | > 20 µM
COc1cc2c(Oc3ccc4[nH]c(C)cc4c3F)ccnc2cc1OCC1(N)CC1 | – | – | paediatric recurrent refractory sarcoma | 8 mg | Rash incidence | 0%
Oc1cccc([C@]23CCC[C@H]([C@H]2O)N(CC=Cc2ccccc2)CC3)c1 | Oprm1 | agonist | C6 cells expressing µ-opioid receptor, cell membranes | – | EC50 | 0.0019 µM
CNC(C)C(=O)c1ccc2c(c1)OCO2 (centres unmarked) | Slc6a4 (Rattus norvegicus, UniProt P31652) | – | – | rat | EC50 | 0.5 ± 0.09 µM
COc1cc(C)[nH]c(=O)c1CNC(=O)c1c(C)n([C@H](C)C2CCN(CC(F)(F)F)CC2)c2ccccc12 | Histone-lysine N-methyltransferase EZH1, in PRC2 complex (EZH1, Homo sapiens, UniProt Q92800) | enzyme activity, inhibitor | – | with: activator peptide | Ki | 0.031 µM
Clc1cccc(N2CCNCC2)c1Cl | CHRM1 | ERK1/2 phosphorylation, agonist | CHO cells | – | EC50 | > 20 µM
CCNC(=N)NC(=O)Nc1cc(C(F)(F)F)cc(C(F)(F)F)c1 | 4'-phosphopantetheinyl transferase PptT | inhibitor | – | – | IC50 | > 100 µM
COC(=O)/C=C/C(=O)N[C@@H]1CC[C@@]2(O)[C@H]3Cc4ccc(O)c5c4[C@@]2(CCN3CC2CC2)[C@H]1O5 | Oprm1 | reversible binding, radioligand saturation binding | N2a membranes | with: [3H]compound | Kd | 0.00204 ± 0.00068 µM
CCNC(=N)NC(=O)Nc1ccc(Br)cc1CC | 4'-phosphopantetheinyl transferase PptT | inhibitor | – | – | IC50 | 62.5 µM
CCCCC(=O)N(Cc1ccc(-c2ccccc2-c2nnn[nH]2)cc1)[C@H](C(=O)O)C(C)C | Succinyl-CoA:glutarate CoA-transferase (SUGCT, Homo sapiens, UniProt Q9HAC7) | enzyme activity, inhibitor, fluorometric coupled | – | pH 7.5, 100 mM HEPES-NaOH buffer | IC50 | 18 µM
CCNC(=NC(=O)OC(C)(C)C)NC(=O)Nc1c(CC)cc(C(=O)OC)cc1CC | 4'-phosphopantetheinyl transferase PptT | inhibitor | – | – | IC50 | > 100 µM
Cc1cccc([C@H](C)c2cnc[nH]2)c1C | Cytochrome P450 2A6 (CYP2A6, Homo sapiens, UniProt P11509) | binding | – | 20 min, pH 7.4, purified protein, 2% DMSO | Kd | 3.47 µM
CCNC(=N)NC(=O)Nc1ccc(C(F)(F)F)cc1 | 4'-phosphopantetheinyl transferase PptT | inhibitor | – | – | IC50 | > 100 µM
CCCCCCC(CCCCCCCCCCC(=O)O)N(C)c1ccc([N+](=O)[O-])c2nonc12 (centres unmarked) | lprG (Mycobacterium tuberculosis, UniProt P9WK45) | binding | – | – | Kd | 20 µM
CCNC(=N)NC(=O)Nc1ccc2ccccc2c1 | 4'-phosphopantetheinyl transferase PptT | inhibitor | – | – | IC50 | > 100 µM
CCCc1cc(O)c2c(c1)OC(C)(C)[C@@H]1CCC(C)=C[C@@H]21 | TRPV3 (Homo sapiens, UniProt Q8NET8, R693F) | calcium uptake, agonist | HEK293S | mutant R693F, site 3 | EC50 | 20.1 ± 4.9 µM

Repeated from above:
SMILES | target or system | test | system | conditions | quantity | value
Clc1cccc(N2CCNCC2)c1Cl | CHRM1 | ERK1/2 phosphorylation, agonist | CHO cells | – | EC50 | > 20 µM
CCCCCCC(CCCCCCCCCCC(=O)O)N(C)c1ccc([N+](=O)[O-])c2nonc12 (centres unmarked) | lprG (Mycobacterium tuberculosis, UniProt P9WK45) | binding | – | – | Kd | 20 µM
